# Experimental data collected from several papers.
# Protocols differ between the studies behind these lines. ± marks the error that the study gave.
# CSNK1D: Casein kinase I isoform delta (CSNK1D, Homo sapiens, UniProt P48730)
# Chain of UniProt P48730 (whole entry, looked up): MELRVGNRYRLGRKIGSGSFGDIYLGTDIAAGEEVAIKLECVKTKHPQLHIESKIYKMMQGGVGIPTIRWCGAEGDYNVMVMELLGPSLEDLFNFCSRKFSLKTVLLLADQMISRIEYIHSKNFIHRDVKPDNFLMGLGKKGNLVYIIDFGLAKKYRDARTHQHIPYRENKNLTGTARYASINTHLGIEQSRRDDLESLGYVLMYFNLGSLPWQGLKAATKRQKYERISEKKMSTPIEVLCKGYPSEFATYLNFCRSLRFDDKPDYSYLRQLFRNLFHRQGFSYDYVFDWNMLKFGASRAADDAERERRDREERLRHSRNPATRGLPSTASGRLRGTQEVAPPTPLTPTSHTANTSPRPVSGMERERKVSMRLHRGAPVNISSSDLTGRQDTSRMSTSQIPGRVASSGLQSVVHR
# Dihydrofolate reductase type 2: Dihydrofolate reductase type 2 (Escherichia coli, UniProt P00383)
# Chain of UniProt P00383 (whole entry, looked up): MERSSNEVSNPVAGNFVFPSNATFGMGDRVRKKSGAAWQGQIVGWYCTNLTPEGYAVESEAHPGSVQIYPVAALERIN
# F2: Prothrombin (F2, Homo sapiens, UniProt P00734)
# PSMB5: Proteasome Macropain subunit MB1 (PSMB5, Homo sapiens, UniProt P28074)
# Chain of UniProt P28074 (whole entry, looked up): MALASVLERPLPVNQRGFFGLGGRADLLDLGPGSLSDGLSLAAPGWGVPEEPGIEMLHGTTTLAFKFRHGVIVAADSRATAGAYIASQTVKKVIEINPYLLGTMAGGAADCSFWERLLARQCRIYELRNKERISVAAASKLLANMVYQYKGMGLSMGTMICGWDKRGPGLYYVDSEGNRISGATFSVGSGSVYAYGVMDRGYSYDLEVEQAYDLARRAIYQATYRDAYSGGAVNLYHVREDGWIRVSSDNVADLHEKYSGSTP
# Chain of UniProt Q15717 (whole entry, looked up): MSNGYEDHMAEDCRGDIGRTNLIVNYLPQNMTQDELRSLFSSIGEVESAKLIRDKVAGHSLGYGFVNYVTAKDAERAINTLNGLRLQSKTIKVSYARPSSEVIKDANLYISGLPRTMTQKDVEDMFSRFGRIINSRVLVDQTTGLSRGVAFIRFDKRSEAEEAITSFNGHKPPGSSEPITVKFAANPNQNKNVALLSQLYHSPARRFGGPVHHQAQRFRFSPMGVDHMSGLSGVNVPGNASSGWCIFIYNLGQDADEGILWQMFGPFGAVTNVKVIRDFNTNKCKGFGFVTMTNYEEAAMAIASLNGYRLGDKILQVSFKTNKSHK
# Chain of UniProt P07949 (whole entry, looked up): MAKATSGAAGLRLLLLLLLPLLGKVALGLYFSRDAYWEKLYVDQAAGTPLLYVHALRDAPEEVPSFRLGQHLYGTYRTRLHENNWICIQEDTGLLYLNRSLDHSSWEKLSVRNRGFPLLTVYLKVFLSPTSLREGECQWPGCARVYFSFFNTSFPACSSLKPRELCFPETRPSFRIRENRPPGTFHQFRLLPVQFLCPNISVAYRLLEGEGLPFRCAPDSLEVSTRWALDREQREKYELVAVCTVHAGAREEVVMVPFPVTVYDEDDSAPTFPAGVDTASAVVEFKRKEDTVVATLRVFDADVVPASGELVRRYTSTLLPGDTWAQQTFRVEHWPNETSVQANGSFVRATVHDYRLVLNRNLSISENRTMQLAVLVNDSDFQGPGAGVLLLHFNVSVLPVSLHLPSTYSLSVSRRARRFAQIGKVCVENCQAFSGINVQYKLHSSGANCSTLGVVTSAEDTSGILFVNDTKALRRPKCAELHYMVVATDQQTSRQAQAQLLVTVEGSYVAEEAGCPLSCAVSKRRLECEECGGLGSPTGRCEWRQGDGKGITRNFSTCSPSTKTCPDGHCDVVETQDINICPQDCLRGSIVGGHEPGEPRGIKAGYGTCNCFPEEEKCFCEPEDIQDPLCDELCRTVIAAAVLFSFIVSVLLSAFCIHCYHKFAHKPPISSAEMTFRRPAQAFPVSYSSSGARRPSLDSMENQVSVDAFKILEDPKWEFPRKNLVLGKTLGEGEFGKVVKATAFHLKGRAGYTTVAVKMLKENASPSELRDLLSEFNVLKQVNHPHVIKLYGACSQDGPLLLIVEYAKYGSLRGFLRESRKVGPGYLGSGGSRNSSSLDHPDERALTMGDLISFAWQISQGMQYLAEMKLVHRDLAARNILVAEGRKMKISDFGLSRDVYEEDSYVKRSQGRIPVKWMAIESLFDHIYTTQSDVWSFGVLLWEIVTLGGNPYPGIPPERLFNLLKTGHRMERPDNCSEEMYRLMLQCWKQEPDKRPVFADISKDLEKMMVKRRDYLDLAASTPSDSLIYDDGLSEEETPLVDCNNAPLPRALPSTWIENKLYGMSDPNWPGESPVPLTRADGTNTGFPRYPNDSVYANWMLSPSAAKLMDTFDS
# Chain of UniProt P20618 (whole entry, looked up): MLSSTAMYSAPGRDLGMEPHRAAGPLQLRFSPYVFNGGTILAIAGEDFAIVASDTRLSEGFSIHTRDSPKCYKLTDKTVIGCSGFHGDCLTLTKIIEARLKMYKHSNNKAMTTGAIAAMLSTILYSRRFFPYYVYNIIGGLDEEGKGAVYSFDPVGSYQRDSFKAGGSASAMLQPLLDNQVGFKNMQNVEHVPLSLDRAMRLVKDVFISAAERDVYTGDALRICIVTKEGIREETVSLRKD
# Chain of UniProt P37231 (whole entry, looked up): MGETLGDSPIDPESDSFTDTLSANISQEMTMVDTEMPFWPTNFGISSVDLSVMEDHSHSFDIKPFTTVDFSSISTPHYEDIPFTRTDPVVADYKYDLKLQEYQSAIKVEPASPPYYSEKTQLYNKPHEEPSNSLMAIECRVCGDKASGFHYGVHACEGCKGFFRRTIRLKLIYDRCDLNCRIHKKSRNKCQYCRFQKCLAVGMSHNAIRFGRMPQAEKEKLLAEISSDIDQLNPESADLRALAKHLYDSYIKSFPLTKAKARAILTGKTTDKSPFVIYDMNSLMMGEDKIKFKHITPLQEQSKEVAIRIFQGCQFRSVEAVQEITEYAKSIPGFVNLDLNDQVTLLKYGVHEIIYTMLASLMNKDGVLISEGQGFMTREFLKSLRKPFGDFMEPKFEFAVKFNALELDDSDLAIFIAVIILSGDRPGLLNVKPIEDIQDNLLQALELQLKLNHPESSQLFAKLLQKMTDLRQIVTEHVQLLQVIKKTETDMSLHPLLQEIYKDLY
# Chain of UniProt P42568 (whole entry, looked up): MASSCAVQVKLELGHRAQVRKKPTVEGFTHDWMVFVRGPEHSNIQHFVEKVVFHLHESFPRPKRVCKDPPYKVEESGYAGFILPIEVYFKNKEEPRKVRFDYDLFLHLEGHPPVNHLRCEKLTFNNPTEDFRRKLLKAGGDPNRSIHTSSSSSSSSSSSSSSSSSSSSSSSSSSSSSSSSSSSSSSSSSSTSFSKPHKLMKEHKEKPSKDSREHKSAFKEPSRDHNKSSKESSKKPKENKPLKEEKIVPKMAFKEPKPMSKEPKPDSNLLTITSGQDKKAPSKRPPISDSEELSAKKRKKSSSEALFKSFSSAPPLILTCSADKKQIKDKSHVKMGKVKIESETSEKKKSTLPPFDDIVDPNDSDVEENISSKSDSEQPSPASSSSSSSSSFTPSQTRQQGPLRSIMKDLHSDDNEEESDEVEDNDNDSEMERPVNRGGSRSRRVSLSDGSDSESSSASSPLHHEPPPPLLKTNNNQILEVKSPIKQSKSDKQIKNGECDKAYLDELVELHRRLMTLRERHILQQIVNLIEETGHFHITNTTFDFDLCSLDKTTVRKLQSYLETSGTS
# Chain of UniProt P21980 (whole entry, looked up): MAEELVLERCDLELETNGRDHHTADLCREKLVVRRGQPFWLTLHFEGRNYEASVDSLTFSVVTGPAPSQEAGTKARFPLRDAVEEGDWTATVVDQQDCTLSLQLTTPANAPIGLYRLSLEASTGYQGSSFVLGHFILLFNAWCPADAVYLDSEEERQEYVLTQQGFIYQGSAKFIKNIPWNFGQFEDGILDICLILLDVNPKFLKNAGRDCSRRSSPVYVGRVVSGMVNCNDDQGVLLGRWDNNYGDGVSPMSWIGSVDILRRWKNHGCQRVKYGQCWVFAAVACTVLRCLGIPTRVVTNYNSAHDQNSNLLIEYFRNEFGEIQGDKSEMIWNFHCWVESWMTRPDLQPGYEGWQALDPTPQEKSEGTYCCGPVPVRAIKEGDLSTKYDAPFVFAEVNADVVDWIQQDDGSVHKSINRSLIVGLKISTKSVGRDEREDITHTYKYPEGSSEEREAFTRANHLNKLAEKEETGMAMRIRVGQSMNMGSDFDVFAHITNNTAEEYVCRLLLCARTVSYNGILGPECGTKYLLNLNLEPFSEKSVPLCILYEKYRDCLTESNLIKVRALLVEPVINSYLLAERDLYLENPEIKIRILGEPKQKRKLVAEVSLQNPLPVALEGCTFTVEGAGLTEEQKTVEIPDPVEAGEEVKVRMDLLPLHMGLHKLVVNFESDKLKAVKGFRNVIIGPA
# Chain of UniProt P42681 (whole entry, looked up): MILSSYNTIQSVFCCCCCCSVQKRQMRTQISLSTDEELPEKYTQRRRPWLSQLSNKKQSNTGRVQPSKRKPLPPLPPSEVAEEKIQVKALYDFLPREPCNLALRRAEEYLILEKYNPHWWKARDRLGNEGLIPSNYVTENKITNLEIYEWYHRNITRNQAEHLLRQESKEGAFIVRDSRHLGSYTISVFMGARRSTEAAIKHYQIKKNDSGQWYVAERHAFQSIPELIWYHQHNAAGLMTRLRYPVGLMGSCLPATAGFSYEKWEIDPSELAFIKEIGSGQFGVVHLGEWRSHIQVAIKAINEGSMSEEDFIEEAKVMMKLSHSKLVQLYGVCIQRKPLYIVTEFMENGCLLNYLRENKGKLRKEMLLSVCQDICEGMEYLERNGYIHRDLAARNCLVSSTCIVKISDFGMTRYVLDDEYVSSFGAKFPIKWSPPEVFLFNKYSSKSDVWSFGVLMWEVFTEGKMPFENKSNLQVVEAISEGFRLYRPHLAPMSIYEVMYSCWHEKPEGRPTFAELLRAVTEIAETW
# Chain of UniProt P14555 (whole entry, looked up): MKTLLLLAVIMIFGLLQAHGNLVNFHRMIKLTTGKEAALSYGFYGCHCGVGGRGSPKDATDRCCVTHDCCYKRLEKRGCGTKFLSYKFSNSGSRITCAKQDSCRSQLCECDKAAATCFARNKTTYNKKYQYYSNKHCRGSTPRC
SMILES,target,assay,test system,setting,how to read,IC50 [µM]
COc1cccc(OC)c1-c1nc(-c2ccc(F)cc2)c(-c2ccncc2)[nH]1,CSNK1D,inhibitor,,,,0.298 ± 0.0279
CC1CC(C)CN(c2ccc(C=NNc3nc(-c4ccccc4)cs3)cc2)C1 (stereo not shown),alpha-glucosidase,"enzyme activity, inhibitor",,with: p-nitrophenyl-alpha-D-glucopyranoside,,9.36
COc1ccc(F)cc1C(=O)NCc1ccc(-c2nn([C@@H](C)C(F)(F)F)c(N)c2C(N)=O)cc1,"TXK (Homo sapiens, UniProt P42681)","target engagement, NanoBRET tracer displacement",HEK293,,above top tested dose,> 5
COc1ccc([N+](=O)[O-])cc1C(=O)Nc1ccc(CCF)cc1,"Peroxisome proliferator-activated receptor gamma, ligand-binding domain (PPARG, Homo sapiens, UniProt P37231)","binding, scintillation proximity",His-tagged ligand-binding domain,with: [3H]rosiglitazone,,0.0466 ± 0.0007
CC(C)(C)OC(=O)n1cccc1-c1cn(S(=O)(=O)c2ccccc2)c2c1C(=O)C(=O)C=C2,"ELAV-like protein 1, RRM1-RRM2 domains (ELAVL1, Homo sapiens, UniProt Q15717)","HuR-RNA complex formation, REMSA",,with: 1 nM labelled RNA probe,,1.8
COc1cc(/C=N/n2c(C)nc3ccc(Br)cc3c2=O)ccc1OCc1ccc(Cl)cc1,"Phospholipase A2, membrane associated (Homo sapiens, UniProt P14555)","enzyme activity, inhibitor, colorimetric",,,,49.7 ± 2.12
c1cc(N2CCCCC2)ccc1-c1ccc2ncc(OCC3CCNCC3)nc2c1,"Protein AF-9, with DOT1L (Homo sapiens, UniProt P42568)","DOT1L binding, AlphaLISA",,,,7.4
CC[C@@H]1[C@H](F)C(=O)N[C@@H]1COc1nccc2cc(C(N)=O)c(OC)cc12,"CHEK2 (Homo sapiens, UniProt O96017)","ATP-site probe binding, ActivX profiling",THP-1 cell lysate,Lys2 site,,2.6
CC1=CC(=O)c2ccccc2C1=O,"TGM2 (Homo sapiens, UniProt P21980)","enzyme activity, inhibitor, BP incorporation",,"with: no DTT, Triton 0.02%",,5.5 ± 2
COC(=O)c1ccc2nc(-c3ccc(OCc4ccccc4)c(Br)c3)[nH]c2c1,Dihydrofolate reductase type 2,enzyme activity,,pH 7,,> 30
COc1cc(-c2cc(C(C)=O)n3ccccc23)c(OC)cc1Cn1ccnc1,"BRD9 (Homo sapiens, UniProt Q9H8M2)",inhibitor,,,,0.0053
CCOC(=O)/C=C/C(=O)N(CC(C)C)NC(=O)[C@H](Cc1ccccc1)NC(=O)[C@H](CC(C)C)NC(=O)[C@H](CCc1ccccc1)NC(=O)CN1CCOCC1,"Proteasome component C5/PSMB5 (Homo sapiens, UniProt P20618+P28074)","chymotrypsin-like activity, inhibitor",human 20S proteasome,with: Suc-LLVY-AMC 100 µM,,5.7 ± 2.5
COCc1nn(Cc2ccc(Cn3ccccc3=O)cc2)cc1C(=O)NCc1c(F)ccc(OC)c1F,F2,,,,,> 40
O=C(O)c1ccc2nc(-c3ccc(OCCC(O)COc4ccc(-c5nc6ccc(C(=O)O)cc6[nH]5)cc4Br)c(Br)c3)[nH]c2c1 (stereo not shown),Dihydrofolate reductase type 2,enzyme activity,,pH 7,,83 ± 22
CC(C)C[C@H](NC(=O)c1cnccn1)C(=O)N[C@@H](C)C(=O)N[C@H](/C=C/S(C)(=O)=O)Cc1ccc(CN)cc1,PSMB5,competitive ABPP,Raji cell lysate,,,> 10
Fc1ccc(-c2nc(-c3ccc4ccccc4c3)[nH]c2-c2ccncc2)cc1,CSNK1D,inhibitor,,,,1.23 ± 0.34
Nc1nc(SCC(=O)Nc2ccc3c(c2)OCO3)[nH]c(=O)c1NC(=O)c1ccc(F)c(F)c1,"RET (Homo sapiens, UniProt P07949)","kinase activity, inhibitor",,"replicate one, with: 1 µM ATP, poly(Glu,Tyr)",,58.5
CC(C)C[C@H](NC(=O)c1ccc(-c2ccccc2)nc1)C(=O)N[C@@H](CC(C)C)C(=O)N[C@H](/C=C/S(C)(=O)=O)Cc1ccc(CN)cc1,PSMB5,competitive ABPP,Raji cell lysate,,,4.47
Cc1cnn(Cc2ccc(Cn3cc(C(=O)NCc4ccc5c(N)nccc5c4)cn3)cc2)c1,F2,,,,,> 40

# For quick reference, copied from above:
SMILES,target,assay,test system,setting,how to read,IC50 [µM]
CC1CC(C)CN(c2ccc(C=NNc3nc(-c4ccccc4)cs3)cc2)C1 (stereo not shown),alpha-glucosidase,"enzyme activity, inhibitor",,with: p-nitrophenyl-alpha-D-glucopyranoside,,9.36
COc1ccc(F)cc1C(=O)NCc1ccc(-c2nn([C@@H](C)C(F)(F)F)c(N)c2C(N)=O)cc1,"TXK (Homo sapiens, UniProt P42681)","target engagement, NanoBRET tracer displacement",HEK293,,above top tested dose,> 5
COc1ccc([N+](=O)[O-])cc1C(=O)Nc1ccc(CCF)cc1,"Peroxisome proliferator-activated receptor gamma, ligand-binding domain (PPARG, Homo sapiens, UniProt P37231)","binding, scintillation proximity",His-tagged ligand-binding domain,with: [3H]rosiglitazone,,0.0466 ± 0.0007
